Results pooled from the literature.
Compare with care: the assays were run in different laboratories. Several values in a cell are separate wells, animals, samples, runs or records. ± marks the error that the study gave.
UniProt Q9BYW2, sequence (whole entry, looked up): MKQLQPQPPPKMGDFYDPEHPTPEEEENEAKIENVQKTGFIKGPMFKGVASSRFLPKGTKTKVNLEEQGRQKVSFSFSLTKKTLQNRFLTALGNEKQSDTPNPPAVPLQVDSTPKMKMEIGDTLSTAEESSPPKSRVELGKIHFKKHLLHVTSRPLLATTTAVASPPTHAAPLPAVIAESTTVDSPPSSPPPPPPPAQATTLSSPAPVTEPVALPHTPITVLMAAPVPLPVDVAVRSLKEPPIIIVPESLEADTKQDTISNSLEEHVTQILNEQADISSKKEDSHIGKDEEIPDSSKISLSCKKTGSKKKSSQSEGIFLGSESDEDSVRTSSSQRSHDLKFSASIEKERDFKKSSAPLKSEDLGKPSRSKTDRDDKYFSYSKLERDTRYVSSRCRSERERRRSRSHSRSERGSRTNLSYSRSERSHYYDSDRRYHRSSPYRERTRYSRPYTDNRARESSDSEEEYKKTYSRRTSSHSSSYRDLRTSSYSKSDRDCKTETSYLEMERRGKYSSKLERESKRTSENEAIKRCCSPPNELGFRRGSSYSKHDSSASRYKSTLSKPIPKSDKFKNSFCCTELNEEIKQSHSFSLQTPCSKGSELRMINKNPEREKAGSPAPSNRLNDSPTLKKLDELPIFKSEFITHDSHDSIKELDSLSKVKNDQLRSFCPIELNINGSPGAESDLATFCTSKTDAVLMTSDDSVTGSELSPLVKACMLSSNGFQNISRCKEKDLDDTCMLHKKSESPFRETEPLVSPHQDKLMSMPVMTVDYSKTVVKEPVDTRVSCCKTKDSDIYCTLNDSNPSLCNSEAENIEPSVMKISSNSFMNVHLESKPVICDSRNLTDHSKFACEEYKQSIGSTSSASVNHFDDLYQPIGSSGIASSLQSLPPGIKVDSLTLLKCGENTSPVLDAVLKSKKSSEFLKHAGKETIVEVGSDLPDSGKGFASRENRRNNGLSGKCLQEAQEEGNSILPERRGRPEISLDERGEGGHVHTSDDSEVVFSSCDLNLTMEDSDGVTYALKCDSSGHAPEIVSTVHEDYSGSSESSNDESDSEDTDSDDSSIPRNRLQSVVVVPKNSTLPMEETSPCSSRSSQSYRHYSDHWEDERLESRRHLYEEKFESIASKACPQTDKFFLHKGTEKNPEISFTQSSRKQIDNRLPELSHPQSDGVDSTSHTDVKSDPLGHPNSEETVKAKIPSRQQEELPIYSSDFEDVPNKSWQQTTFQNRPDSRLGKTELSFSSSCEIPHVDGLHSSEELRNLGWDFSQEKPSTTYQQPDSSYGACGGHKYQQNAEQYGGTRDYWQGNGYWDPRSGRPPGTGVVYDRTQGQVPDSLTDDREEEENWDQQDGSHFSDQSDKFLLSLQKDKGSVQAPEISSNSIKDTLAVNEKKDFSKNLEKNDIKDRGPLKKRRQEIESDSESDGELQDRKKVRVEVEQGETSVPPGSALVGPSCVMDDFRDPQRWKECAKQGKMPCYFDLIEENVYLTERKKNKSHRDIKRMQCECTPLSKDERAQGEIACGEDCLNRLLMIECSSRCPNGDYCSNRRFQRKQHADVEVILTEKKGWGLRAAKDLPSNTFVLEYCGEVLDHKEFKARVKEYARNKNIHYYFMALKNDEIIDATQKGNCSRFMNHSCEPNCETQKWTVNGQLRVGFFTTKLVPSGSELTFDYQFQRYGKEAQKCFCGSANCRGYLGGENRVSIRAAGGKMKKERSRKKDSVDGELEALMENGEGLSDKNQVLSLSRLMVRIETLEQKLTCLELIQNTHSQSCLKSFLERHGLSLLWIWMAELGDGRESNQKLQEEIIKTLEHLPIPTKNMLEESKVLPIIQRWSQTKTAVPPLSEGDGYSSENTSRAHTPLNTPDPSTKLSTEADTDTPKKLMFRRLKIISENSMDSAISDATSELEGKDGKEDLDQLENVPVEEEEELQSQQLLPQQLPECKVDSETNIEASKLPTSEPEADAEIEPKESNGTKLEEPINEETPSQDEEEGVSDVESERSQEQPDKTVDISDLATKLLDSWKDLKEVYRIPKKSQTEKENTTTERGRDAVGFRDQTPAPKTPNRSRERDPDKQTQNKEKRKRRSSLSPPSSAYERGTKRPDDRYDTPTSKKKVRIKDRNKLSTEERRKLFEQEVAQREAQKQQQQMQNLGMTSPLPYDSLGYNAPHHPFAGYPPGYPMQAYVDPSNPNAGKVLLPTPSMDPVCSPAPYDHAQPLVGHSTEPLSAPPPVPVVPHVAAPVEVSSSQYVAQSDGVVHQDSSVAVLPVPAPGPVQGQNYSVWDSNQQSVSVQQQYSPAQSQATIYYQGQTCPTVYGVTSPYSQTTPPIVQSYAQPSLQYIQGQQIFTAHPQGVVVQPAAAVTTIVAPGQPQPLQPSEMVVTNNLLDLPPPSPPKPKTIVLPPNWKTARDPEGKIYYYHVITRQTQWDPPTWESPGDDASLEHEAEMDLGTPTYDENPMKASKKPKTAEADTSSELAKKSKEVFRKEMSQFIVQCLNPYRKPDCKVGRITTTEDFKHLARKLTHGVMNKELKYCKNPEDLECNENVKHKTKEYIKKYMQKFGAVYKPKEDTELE
UniProt P50897, sequence (whole entry, looked up): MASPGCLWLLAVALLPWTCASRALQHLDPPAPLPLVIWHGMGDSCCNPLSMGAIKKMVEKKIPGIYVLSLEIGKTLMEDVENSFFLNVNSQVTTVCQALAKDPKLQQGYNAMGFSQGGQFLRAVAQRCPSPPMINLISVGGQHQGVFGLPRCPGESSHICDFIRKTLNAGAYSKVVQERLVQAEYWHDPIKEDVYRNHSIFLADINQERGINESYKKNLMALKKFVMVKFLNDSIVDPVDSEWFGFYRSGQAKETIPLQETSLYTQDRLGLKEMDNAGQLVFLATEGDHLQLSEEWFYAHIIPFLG
UniProt Q04609, sequence (whole entry, looked up): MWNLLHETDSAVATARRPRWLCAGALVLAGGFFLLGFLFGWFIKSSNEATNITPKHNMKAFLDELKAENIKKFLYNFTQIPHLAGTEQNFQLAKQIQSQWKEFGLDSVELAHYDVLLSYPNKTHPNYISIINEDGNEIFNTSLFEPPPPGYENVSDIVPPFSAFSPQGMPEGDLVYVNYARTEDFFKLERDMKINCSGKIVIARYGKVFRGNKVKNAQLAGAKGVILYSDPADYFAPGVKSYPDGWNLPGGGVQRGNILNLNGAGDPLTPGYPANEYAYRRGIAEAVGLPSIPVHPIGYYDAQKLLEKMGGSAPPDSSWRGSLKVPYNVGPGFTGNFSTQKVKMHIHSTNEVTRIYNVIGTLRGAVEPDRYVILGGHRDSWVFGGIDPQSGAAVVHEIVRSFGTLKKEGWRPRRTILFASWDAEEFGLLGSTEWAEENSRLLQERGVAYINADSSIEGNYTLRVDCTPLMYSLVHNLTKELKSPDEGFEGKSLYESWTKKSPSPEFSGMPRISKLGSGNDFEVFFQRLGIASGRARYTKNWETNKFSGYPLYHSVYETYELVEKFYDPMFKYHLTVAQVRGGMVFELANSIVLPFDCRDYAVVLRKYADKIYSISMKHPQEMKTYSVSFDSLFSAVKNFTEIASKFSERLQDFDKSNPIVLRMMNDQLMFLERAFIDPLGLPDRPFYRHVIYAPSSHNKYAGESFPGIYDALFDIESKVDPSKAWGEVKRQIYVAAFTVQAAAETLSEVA
UniProt P43351, sequence (whole entry, looked up): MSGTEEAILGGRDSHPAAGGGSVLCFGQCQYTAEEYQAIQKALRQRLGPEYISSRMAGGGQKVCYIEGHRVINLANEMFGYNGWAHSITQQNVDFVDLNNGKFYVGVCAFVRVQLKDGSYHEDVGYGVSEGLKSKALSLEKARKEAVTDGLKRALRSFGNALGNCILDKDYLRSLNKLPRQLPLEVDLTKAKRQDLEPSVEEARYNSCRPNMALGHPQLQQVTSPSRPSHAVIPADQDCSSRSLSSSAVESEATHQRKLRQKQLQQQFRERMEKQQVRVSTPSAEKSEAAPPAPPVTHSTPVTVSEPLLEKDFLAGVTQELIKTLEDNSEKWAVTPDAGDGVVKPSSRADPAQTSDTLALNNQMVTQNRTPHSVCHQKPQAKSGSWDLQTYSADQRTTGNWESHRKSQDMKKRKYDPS
UniProt Q14790, sequence (whole entry, looked up): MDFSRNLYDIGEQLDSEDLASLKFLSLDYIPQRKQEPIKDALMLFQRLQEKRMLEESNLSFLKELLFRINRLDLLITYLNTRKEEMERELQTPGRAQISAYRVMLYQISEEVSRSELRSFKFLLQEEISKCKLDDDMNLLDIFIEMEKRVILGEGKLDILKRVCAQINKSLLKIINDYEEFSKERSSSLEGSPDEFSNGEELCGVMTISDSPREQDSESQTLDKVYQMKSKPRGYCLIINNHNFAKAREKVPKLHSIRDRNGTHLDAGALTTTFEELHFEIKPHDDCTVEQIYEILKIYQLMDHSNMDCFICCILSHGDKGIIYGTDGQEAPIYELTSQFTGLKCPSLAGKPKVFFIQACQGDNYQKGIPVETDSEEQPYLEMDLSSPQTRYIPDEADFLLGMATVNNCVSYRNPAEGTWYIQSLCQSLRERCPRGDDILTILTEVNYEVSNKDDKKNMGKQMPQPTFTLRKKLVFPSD
UniProt P10605, sequence (whole entry, looked up): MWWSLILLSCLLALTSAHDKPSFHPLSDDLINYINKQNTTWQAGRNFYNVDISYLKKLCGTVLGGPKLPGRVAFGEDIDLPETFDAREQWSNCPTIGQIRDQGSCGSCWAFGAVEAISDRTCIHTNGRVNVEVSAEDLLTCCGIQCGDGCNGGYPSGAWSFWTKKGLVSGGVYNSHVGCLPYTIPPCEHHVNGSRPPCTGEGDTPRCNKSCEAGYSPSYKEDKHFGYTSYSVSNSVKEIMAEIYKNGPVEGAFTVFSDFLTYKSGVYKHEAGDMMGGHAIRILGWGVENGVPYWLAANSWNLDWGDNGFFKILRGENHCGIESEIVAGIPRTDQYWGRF
UniProt P01317, sequence (whole entry, looked up): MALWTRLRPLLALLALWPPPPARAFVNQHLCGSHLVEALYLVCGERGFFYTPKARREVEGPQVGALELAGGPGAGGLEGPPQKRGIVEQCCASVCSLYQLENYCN

| Compound | target | test | test system | setting | scale | quantity | value |
| --- | --- | --- | --- | --- | --- | --- | --- |
| CC(=O)N[C@@H](Cc1ccc(O)cc1)C(=O)N[C@H](C(=O)N[C@@H](C)C(=O)N[C@@H](CC(=O)O)C(=O)Nc1ccc2c(C)cc(=O)oc2c1)C(C)C | Caspase-8 (CASP8, Homo sapiens, UniProt Q14790) | substrate cleavage, substrate, fluorogenic AMC release |  | enzyme 0.25 activity units/µL |  | Vmax | 19.1 ± 4.44 RFU/min |
| Nc1ncnc2c1ncn2[C@@H]1O[C@H](CO)[C@@H](O[C@H]2O[C@H](CO)[C@@H](OP(=O)(O)O)[C@H](OP(=O)(O)O)[C@H]2O)[C@H]1O | Inositol 1,4,5-trisphosphate-gated calcium channel ITPR1, N-terminal region (Itpr1, Rattus norvegicus, UniProt P29994, del318-332/R504Q) | [3H]IP3 competition binding |  | N-terminal fragment R504Q |  | Hill coefficient | 0.8 ± 0.1 |
| O=C1/C=C/C(=O)N[C@@H](CC2CCCCC2)C(=O)N[C@@H](Cc2ccc(F)cc2)C(=O)N[C@@H](Cc2ccc([N+](=O)[O-])cc2)C(=O)NCCC[C@@H](C(=O)O)N1 | SRC (Gallus gallus, UniProt P00523, C277Q) | enzyme activity, inhibitor |  |  | relative to: C277Q mutant over wild type | IC50 ratio | 5 fold |
| CCCCCCCCCCCCCCCC(=O)NC[C@H](NC(=O)CNC(=O)CCNc1ccc([N+](=O)[O-])c2nonc12)C(=O)N[C@H](C(=O)N[C@@H](CCCCN)C(=O)N[C@H](C(=O)N[C@@H](CCCCN)C(=O)N[C@@H](CCCCN)C(=O)O)[C@@H](C)CC)C(C)C | Palmitoyl-protein thioesterase 1 (Homo sapiens, UniProt P50897) | chaperone | normal lymphoblasts | 10 to 20 µM, up to 96 h |  | enzyme activity | no effect |
| COc1cc(C(=O)NC2CCC(N3CCN(CC4CCC5(CCCC5)C4)CC3)CC2)c(F)cc1Nc1ncc2c(n1)N(C1CCCC1(F)F)CC(F)(F)C(=O)N2C (stereo not shown) | Insulin receptor (INSR, Homo sapiens, UniProt P06213) | cell-free assay, TR-FRET |  | 10 µM |  | inhibition | 0.15% |
| O=C([O-])CN1CCN(CC(=O)[O-])CCN(C(CCC(=O)NCCCCCN(CCCC[C@H](NC(=O)N[C@@H](CCC(=O)O)C(=O)O)C(=O)O)C(=O)c2ccc(I)cc2)C(=O)O)CCN(CC(=O)[O-])CC1.[68Ga+3] (stereo partly shown) | FOLH1 (Homo sapiens, UniProt Q04609) | PET/CT | prostate cancer patients, lymph nodes metastases |  | relative to: lymph nodes metastases over liver | tumour-to-normal tissue ratio | 10.6 ± 8.18 |
| CC1(C)CCN(Cc2ccc(C(=O)NC[C@]3(O)CCCN(c4cc(NCc5ccccc5)ncn4)C3)c(O)c2)CC1 | SETD2 (Homo sapiens, UniProt Q9BYW2) | enzyme activity |  | 10 µM, added: 1 µM SAM |  | remaining activity | 103% and 99% |
| CC[C@H](C)[C@H](NC(=O)[C@H](CC(=O)O)NC(C)=O)C(=O)N[C@H](C(=O)N[C@H](C(=O)N[C@@H](CCCNC(=N)N)C(=O)N[C@@H](Cc1ccc(O)cc1)C(=O)N[C@@H](CC(N)=O)C(=O)NCC(=O)N[C@@H](CCCCN)C(=O)N[C@H](C(=O)N[C@@H](Cc1c[nH]c2ccccc12)C(=O)N[C@@H](Cc1c[nH]c2ccccc12)C(=O)N[C@@H](CCCNC(=N)N)C(=O)O)C(C)C)[C@@H](C)O)[C@@H](C)O | Insulin (INS, Bos taurus, UniProt P01317) | isothermal titration calorimetry |  | pH 2.6, 25 °C |  | Ka, site 1 | 23000 M⁻¹ |
| COc1ccc(OC)c(Nc2nc(NCCCO)c3ccccc3n2)c1 | RAD52 (Homo sapiens, UniProt P43351) | binding, SPR |  |  |  | kon | 11500 M⁻¹ s⁻¹ |
| BP(=O)(OP(=O)([O-])OC[C@H]1O[C@@H](n2c[n+](C)c3c(O)nc(N)nc32)[C@H](O)[C@@H]1O)OP(=O)(O)OC[C@H]1O[C@@H](n2cnc3c(=O)[nH]c(N)nc32)[C@H](O)[C@@H]1O (stereo partly shown) | DCPS (Homo sapiens, UniProt Q96C86) | binding, fluorescence quenching titration |  | pH 7.6, 20.0 °C |  | association constant | 40.7 ± 2.6 µM⁻¹ |
| Cc1cccc(Cn2ncc3c4cc(F)c(CN(C)C)cc4n(C)c3c2=O)n1 | Pyruvate kinase PKM (PKM, Homo sapiens, UniProt P14618) | ITC |  | pH 7.5, 25 °C |  | ΔH | -7.89 ± 0.459 kcal/mol |
| Cn1cncn1.[Ru+2].c1cc(-c2ccc3ccccc3n2)nc(-c2ccc3ccccc3n2)c1.c1ccc2cc3nc4c5cccnc5c5ncccc5c4nc3cc2c1 | Cathepsin B (Ctsb, Mus musculus, UniProt P10605) | enzyme activity | 4T1, cell lysate | 1 µM, 4 h, dark, then 1 h, added: Z-Arg-Arg-AMC | relative to: vehicle | remaining activity | 118 ± 4% |
| NS(=O)(=O)c1ccc(-n2nc(C(F)(F)F)cc2-c2ccc(F)cc2F)cc1 | Cyclooxygenase-2 (Canis lupus familiaris, UniProt Q8SPQ9) | PGE2 formation, inhibitor | dog whole blood | added: LPS |  | Hill coefficient | 1.4 |

Repeated from above:
| Compound | target | test | test system | setting | scale | quantity | value |
| --- | --- | --- | --- | --- | --- | --- | --- |
| O=C([O-])CN1CCN(CC(=O)[O-])CCN(C(CCC(=O)NCCCCCN(CCCC[C@H](NC(=O)N[C@@H](CCC(=O)O)C(=O)O)C(=O)O)C(=O)c2ccc(I)cc2)C(=O)O)CCN(CC(=O)[O-])CC1.[68Ga+3] (stereo partly shown) | FOLH1 (Homo sapiens, UniProt Q04609) | PET/CT | prostate cancer patients, lymph nodes metastases |  | relative to: lymph nodes metastases over liver | tumour-to-normal tissue ratio | 10.6 ± 8.18 |
